Published values collected from several papers.
Each line is one published result; not all experiments were run side by side. Several values in a cell are separate wells, animals, samples, runs or records.
Target: Focal adhesion kinase 1 (PTK2, Homo sapiens, UniProt Q05397)
Sequence of UniProt Q05397 (whole entry, looked up): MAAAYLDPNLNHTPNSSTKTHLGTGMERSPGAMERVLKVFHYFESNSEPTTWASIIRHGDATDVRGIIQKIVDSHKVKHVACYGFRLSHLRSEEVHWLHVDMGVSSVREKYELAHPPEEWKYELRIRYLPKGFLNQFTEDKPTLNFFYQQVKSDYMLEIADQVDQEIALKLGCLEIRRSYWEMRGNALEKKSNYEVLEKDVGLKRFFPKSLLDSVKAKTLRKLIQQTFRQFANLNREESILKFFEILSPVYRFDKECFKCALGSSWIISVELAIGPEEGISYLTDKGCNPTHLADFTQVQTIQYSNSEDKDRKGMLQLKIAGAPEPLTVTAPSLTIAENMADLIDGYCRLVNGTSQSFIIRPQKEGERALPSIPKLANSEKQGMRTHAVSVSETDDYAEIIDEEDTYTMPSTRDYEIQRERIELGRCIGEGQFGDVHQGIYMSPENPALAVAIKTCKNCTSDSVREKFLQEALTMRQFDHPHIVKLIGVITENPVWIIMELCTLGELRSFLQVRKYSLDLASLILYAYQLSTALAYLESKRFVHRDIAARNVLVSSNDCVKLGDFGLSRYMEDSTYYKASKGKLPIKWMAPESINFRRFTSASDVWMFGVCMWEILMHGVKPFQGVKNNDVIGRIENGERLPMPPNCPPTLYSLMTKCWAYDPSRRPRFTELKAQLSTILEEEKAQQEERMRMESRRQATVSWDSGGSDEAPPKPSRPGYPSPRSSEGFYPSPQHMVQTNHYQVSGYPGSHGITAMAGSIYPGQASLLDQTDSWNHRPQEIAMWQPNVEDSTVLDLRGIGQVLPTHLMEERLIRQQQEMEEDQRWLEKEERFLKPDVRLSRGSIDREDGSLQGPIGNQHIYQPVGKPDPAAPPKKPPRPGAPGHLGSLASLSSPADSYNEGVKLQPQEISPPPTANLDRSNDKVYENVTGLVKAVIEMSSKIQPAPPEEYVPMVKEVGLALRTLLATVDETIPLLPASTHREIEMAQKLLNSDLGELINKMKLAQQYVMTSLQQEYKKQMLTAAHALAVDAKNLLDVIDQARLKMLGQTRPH

Compound = COc1cc(Nc2nccc(-c3cnn4nc(OC)ccc34)n2)cc(C(F)(F)F)c1; test = binding, competition with immobilised ligand; conditions = 1 µM; endpoint = remaining binding; result = 100%
Compound = NC(=O)C[C@H]1CCc2sc3ncnc(O[C@H]4CC[C@H](N5CCOCC5)CC4)c3c21; test = enzyme activity, inhibitor; conditions = 10 µM; endpoint = inhibition; result = 7%
Compound = Cc1cccc(O[C@H]2CCC[C@@H](C(C)CNCc3ccncc3)C2)c1 (relative stereo); test = enzyme activity, inhibitor; conditions = 1 µM; endpoint = inhibition; result = -11%
Compound = CC(=O)N1c2ccc(-c3ccc(CNC(=O)c4cn5cc(-c6cnc(N)nc6)nc(N6CCOCC6)c5n4)cc3)cc2CC[C@@H]1C; test = KINOMEscan; conditions = 10 µM; endpoint = remaining binding; result = 92%
Compound = CN1CCN(Cc2ccc(NC(=O)c3cccc(C#Cc4cnc(N)c5ncccc45)c3)cc2C(F)(F)F)CC1; test = cell-free assay, competition with immobilised ligand; conditions = 50 nM; endpoint = remaining binding; result = 97%
Compound = Cc1cnc2nc1Nc1cccc(c1)COC/C=C/COCc1cc(ccc1OCCN1CCOCC1)N2; test = binding, competition with immobilised ligand; conditions = 0.1 µM; endpoint = remaining binding; result = 91%
Compound = Cc1ccc(-c2c(/C=C(\C#N)C(=O)NC(C)C)n(CCCO)c3ncnc(N)c23)cc1; test = cell-free assay, competition with immobilised ligand; conditions = 1 µM; endpoint = remaining binding; result = 92%
Compound = C=CC(=O)Nc1cc(-c2nn(C3CCN(CCNC(=O)[C@H](C)CCC45CC6CC(CC(C6)C4)C5)CC3)c3ncnc(N)c23)ccc1Oc1ccccc1; test = inhibitor, KiNativ profiling; test system = biochemical; conditions = 2 µM; endpoint = inhibition; result = 3.6%
Compound = COc1ccc(NC(=O)Nc2ccc3c(c2)C(=O)N(C(C)CO)CC(C)C(CN(C)Cc2ccc4c(c2)OCO4)O3)cc1 (centres unmarked); test = kinase activity, KinaseProfiler; conditions = 0.03 µM, species human; how to read = reference: control; endpoint = remaining activity; result = 85%
Compound = CC(C)=CC1OC(C)(C)C2C=C3C(=O)C(Cl)=CC(O)C3C3C(O)C4OC4C(=O)C132 (centres unmarked); test = cell-free assay, competition with immobilised ligand; conditions = 10 µM; endpoint = remaining binding; result = 92%
Compound = O=C(Nc1ccc(Oc2ncnc3[nH]cc(-c4ccccc4)c23)c(F)c1)c1c2n(n(-c3cc(F)ccc3F)c1=O)CCCC2; test = enzyme activity, inhibitor; conditions = 0.5 µM; endpoint = inhibition; result = -4%
Compound = CN1CCN(Cc2ccc(-c3ccc(CO[C@H]4CCC[C@@H]4NC(=O)c4cc(-c5cnn(C)c5)cnc4N)cc3)cc2)CC1; test = enzyme activity, inhibitor; conditions = 0.1 µM; endpoint = inhibition; result = 3%
Compound = C=CC(=O)N1CCCC(n2c(=O)c3ncccc3n(Cc3ccc(Oc4ccccc4)cc3)c2=O)C1 (centres unmarked); test = cell-free assay, competition with immobilised ligand; conditions = 1 µM; endpoint = remaining binding; result = 78%
Compound = COc1ccc(C(=O)/C=C/c2ccccc2-c2c[nH]c3ccc(C#N)cc23)c(O)c1; test = enzyme activity, inhibitor; conditions = 20 µM; endpoint = inhibition; result = 2%
Compound = C=CC(=O)Nc1cccc(-c2cnc3[nH]cc(C(=O)NC(C)(C)C)c3n2)c1; test = enzyme activity, inhibitor; conditions = 0.1 µM; endpoint = inhibition; result = 2%
Compound = CNC(=O)C1CCN(c2cc(C)c(F)cc2NC(=O)c2ccc(-c3cc(O)ccc3C)c(C)c2)CC1; test = binding, competition with immobilised ligand; conditions = 1 µM; endpoint = remaining binding; result = 100%
Compound = Nc1ncc(-c2cc(-c3cnn(CC(F)(F)F)c3)ncc2F)nc1C(=O)NC1CNCC(F)C1 (centres unmarked); test = enzyme activity; conditions = 1 µM; how to read = reference: DMSO control; endpoint = remaining activity; result = 97.9%
Compound = CNC1C[S+]2CC[S+]3CC[S+](C1)[Ru-4]321([N]=C=S)[n]2c3ccc(OC)cc3c3c4c(c5cc(F)c[n+]1c5c32)C(=O)NC4=O (centres unmarked); test = KinomeScan; conditions = 0.1 µM; how to read = reference: untreated; endpoint = remaining binding; result = 90%
Compound = CN1CCN(c2ccc(Nc3ncc(Cl)c(Nc4ccccc4P(C)(C)=O)n3)cc2Br)CC1; test = enzyme activity, inhibitor; conditions = 0.1 µM; endpoint = inhibition; result = 87.5%
Compound = COCC12C(=O)NC3C4(C(OC)CC1O)C1CC5(O)C(OC)C(O)C(OC(C)=O)(C1C5OC(=O)c1ccccc1)C3(O)C(OC)C24 (centres unmarked); test = kinase activity, inhibitor, ProQinase kinase profiling; conditions = 25 µM; how to read = reference: control; endpoint = remaining activity; result = 101% and 110%

Repeated from above:
Compound = CC(C)=CC1OC(C)(C)C2C=C3C(=O)C(Cl)=CC(O)C3C3C(O)C4OC4C(=O)C132 (centres unmarked); test = cell-free assay, competition with immobilised ligand; conditions = 10 µM; endpoint = remaining binding; result = 92%
Compound = O=C(Nc1ccc(Oc2ncnc3[nH]cc(-c4ccccc4)c23)c(F)c1)c1c2n(n(-c3cc(F)ccc3F)c1=O)CCCC2; test = enzyme activity, inhibitor; conditions = 0.5 µM; endpoint = inhibition; result = -4%
